Assay results pooled from the literature.
Every numbered part comes from another study and shows a few of its results, in no order. Substitutions count along the parent as printed.

Block 1 — target: CCNE2, cyclin fold, Cln2 fusion (human); method: yeast growth competition, sequencing; sample: yeast; setting: strong parent motif; reference: not given; reading: higher = stronger binding
Parent: GMNC docking peptide (human); KNAKRNLSSEFAN
`L7N`: “normalised enrichment score” 0.244.
For `E10D`, “normalised enrichment score” read 0.704.
For `F11Q`, “normalised enrichment score” read 0.466.
`L7Y`: “normalised enrichment score” -0.0622.
`S8I`: “normalised enrichment score” 2.27.
For `F11K`, “normalised enrichment score” read 0.161.
Under “normalised enrichment score”, `A12Y` is recorded as 0.913.

Block 2 — method: DHFR PCA, deep sequencing; sample: yeast; with: (+)-ABA 200 µM; reference: wild-type fitted maximum; reading: higher = stronger binding
Target: ABI1, truncated, D143A, DHFR fusion (Arabidopsis thaliana)
Setting: methotrexate growth selection, single substitutions
Parent: PYL1, truncated, DHFR fusion (Arabidopsis thaliana); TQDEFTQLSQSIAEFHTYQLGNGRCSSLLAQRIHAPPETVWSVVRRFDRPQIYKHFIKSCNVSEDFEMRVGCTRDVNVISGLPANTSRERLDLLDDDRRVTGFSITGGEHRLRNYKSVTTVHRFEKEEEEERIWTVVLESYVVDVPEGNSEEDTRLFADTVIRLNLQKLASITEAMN; partner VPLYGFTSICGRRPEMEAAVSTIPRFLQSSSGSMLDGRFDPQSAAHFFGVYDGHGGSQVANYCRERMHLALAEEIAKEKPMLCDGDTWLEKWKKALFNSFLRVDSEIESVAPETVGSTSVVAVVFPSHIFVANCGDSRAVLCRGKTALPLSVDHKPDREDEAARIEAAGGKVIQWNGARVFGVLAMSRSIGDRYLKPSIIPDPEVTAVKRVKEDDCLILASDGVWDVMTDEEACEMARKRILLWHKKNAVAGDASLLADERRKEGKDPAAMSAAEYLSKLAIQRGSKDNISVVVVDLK
`E109H` — result for “relative binding score”: 98%.
For `H55N`, “relative binding score” read 102%.
`V145E`: “relative binding score” 26.7%.
For `F124K`, “relative binding score” read 88.4%.
Under “relative binding score”, `Q10R` is recorded as 98%.
`S140E`: “relative binding score” -4.21%.
Under “relative binding score”, `Y53C` is recorded as 45%.

Block 3 — method: RNA Bind-n-Seq; molecule type: RNA; sample: in vitro; tested at: 365 nM; reference: no-protein control; reading: higher = stronger binding
Target: RNA binding protein fox-1 homolog 2, RRM domain, GST-SBP tag (RBFOX2, Homo sapiens, UniProt O43251-10, residues 100-194)
Setting: natural RNA segment, single round, ends assumed
Constant ends, left off below: GGGAGUUCUACAGUCCGACGAUC … UGGAAUUCUCGGGUGCCAA
Construct (chain): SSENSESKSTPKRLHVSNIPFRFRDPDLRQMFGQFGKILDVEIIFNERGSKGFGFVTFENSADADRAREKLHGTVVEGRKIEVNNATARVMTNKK
For `UUCUUUCAUGCCUCUUGUAAUGUUCUGAACAAACUUGAAUGAUGAAAGUAUUAAAGAGAUAUCAGUAUUUGAGGUUUGUAUUUUCUUCUGUCUCUGGGGAGGAUUUCUCA`, “RBNS enrichment (R)” read 0.34.
For `CACAGAGAAGGAGACGCACUUCUGGCGGCCACCAGCCAUCUGGGGCUCUUCUUCCUUUCUUCCCCCCGUGUAUGUAAAUGAAUUCCUGAACCCCAUACUUCACCUAAUGG`, “RBNS enrichment (R)” read 0.202.
Under “RBNS enrichment (R)”, `UAAAUGAUGUUUCUUCUGCAACUGGCUACUCCUCUUAUAUUAAUGCAUACACUUUUGUAAAGAAGUAAUUUUUAUGAUAAAAAAACUUUGUAAAAGUAUGAUGUAAAUUU` is recorded as 0.582.
`CAAAUGGAGUCAUUCUCCUUACUUCUGGCAGAAGGGUCAUAGCUCUCCCAGUAGUAGACCUGUGGUACCUAACGGCGUAUCAGGGCAUGCUGGUAUCACAAGACCCUGAU` — result for “RBNS enrichment (R)”: 0.27.
Under “RBNS enrichment (R)”, `GGUCUCUGCUGGGGUGUCUGACCCUCCACCACCUCACCUUGUUGGUACCUCCCUCCCUGAAUUCCUGAGCCAGCAACUCUUACUGGCCCCUCCAUAGGGUCUUGCUGCCA` is recorded as 0.38.
`GAAACCUUACCCGAGAGGAGUUUCCUAUCUCUGGAUGGCAGUUGAUUCACUGUAAGUGUUCUGUGGCCUAACUAGUGAGAGAUGCUUCAAAUAAACUAAGUUUUUAUGAG` — result for “RBNS enrichment (R)”: 0.398.
For `UCGGGGGACCUGGCUUUGAGCUAGUUGGCCCCCAGCCCCAGCUGGUUUUUCUAAGGGUCAACUCAGACUGCCCUGUACCCUGGAAAAAUAGCAAUAGCAGCCCCAUCUAC`, “RBNS enrichment (R)” read 0.495.
`UGUGUGAGCACUGGAGUGUCCAGAGCCCUGCACACUCGGGGUGGGGGGCGGGGUACUCUCCCUGUCGCUAGGUGAGCACUGGCUUUGUCCAACAUCAGGGAACACAAGGC` — result for “RBNS enrichment (R)”: 0.195.

Other studies, line by line
For `PhoQ, residues 284 288 289 292 302 303 HSYLQF`, the fold induction was 0.759 (PhoP, residues 12 14 15 18 19 STHWV (Escherichia coli, UniProt P23836); Sort-seq, refers to: YFP reporter; E. coli; PhoQ-PhoP variant library, with: 10 µM Mg2+; reference: high Mg2+ state, higher = stronger signaling).

A few entries again (block 2):
`V145E`: “relative binding score” 26.7%.
For `F124K`, “relative binding score” read 88.4%.
Under “relative binding score”, `Q10R` is recorded as 98%.
`S140E`: “relative binding score” -4.21%.
